# Published values pooled from the literature.
# Numbered parts are unrelated; each lists some results of a single study. Changes are numbered by the printed parent chain.

# Study 1 — observed: peptide-MHC binding; form: peptide; tested at: concentration not given
# Target: HLA class I histocompatibility antigen, A alpha chain, allele A*80:01 (Homo sapiens, UniProt P04439)
Sequence,binding
SLGDPLHQA,inactive
YWDQVTFFY,inactive
GTTVVKVKY,inactive
PHDPDFLVL,inactive
MGMEQTMSV,inactive
LQNFCQHLV,inactive
ELYENKPDV,inactive
CASSSDWFY,inactive

# Study 2 — target: UBE2D4 UBC core domain (UniProt Q9Y2X8); technique: yeast two-hybrid; matrix: yeast; notes: mostly zero background; relative to: not given; reading: higher = stronger interaction
# B1: TRIM35 RING domain (UniProt Q9UPQ4); chain PSRSFKEELLCAVCYDPFRDAVTLRCGHNFCRGCVSRCWEVQVSPTCPVCKDRASPADLRT
# B2: TRIM52 RING domain (UniProt Q96A61); chain PMQTLQEEAVCAICLDYFKDPVSISCGHNFCRGCVTQLWSKEDEEDQNEEEDEWEEEEDEEAV
# B3: TRIM38 RING domain (UniProt O00635); chain STKKMMEEATCSICLSLMTNPVSINCGHSYCHLCITDFFKNPSQKQLRQETFCCPQCRAPFHMDSLRP
# B4: RNF149 RING domain (UniProt Q8NC42); chain EKGIDVDAENCAVCIENFKVKDIIRILPCKHIFHRICIDPWLLDHRTCPMCKLDVIKALGYW
# B5: RNF175 RING domain (UniProt Q8N4F7); chain LPTRSLSDNICAVCGQKIIVELDEEGLIENTYQLSCNHVFHEFCIRGWCIVGKKQTCPYCKEKVDLKRMIS
# B6: RNF150 RING domain (UniProt Q9ULK6); chain DKETESDFDNCAVCIEGYKPNDVVRILPCRHLFHKSCVDPWLLDHRTCPMCKMNILKALGIP
# Residues (chain): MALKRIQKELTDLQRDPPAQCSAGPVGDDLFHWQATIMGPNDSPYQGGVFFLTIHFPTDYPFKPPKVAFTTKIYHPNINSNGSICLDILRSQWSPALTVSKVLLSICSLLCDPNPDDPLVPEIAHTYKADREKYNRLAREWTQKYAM
Sequence,lacZ reporter activity
KRQCSDVDDICSICQAEFQKPILLICQHIFCEECMTLWFNREKTCPLCRTVISDHINKW (RNFT1 RING domain (UniProt Q5M7Z0)),0
LKQVSIRENCCSLCCDEVADTQLKPCGHSDLCMDCALQLETCPLCRKEIVSRIRQI (RSPRY1 RING domain (UniProt Q96DX4)),0
B1 (TRIM35 RING domain),0
B2 (TRIM52 RING domain),0
B3 (TRIM38 RING domain),0
B4 (RNF149 RING domain),0
B5 (RNF175 RING domain),0
B6 (RNF150 RING domain),16100

# Study 3 — target: CCND1, cyclin fold, Cln2 fusion (human); technique: yeast growth competition, sequencing; matrix: yeast; notes: weak parent motif; relative to: not given; reading: higher = stronger binding; starting sequence: viral docking peptide; TSVRRALFTGGSD
Variant,normalised enrichment score
TSVRDALFTGGSD [R5D],0.131
TSVVRALFTGGSD [R4V],0.179
TSVRRALVTGGSD [F8V],-0.163
TSVRRAHFTGGSD [L7H],-0.0905
TSVRRALFTWGSD [G10W],0.616
TSVRRALFTGGWD [S12W],0.304
TSNRRALFTGGSD [V3N],-0.17
TVVRRALFTGGSD [S2V],0.143

# Further values, each from its own experiment
SMILES,target,quantity,value
CN(C)C(=O)COC(=O)Cc1ccc(OC(=O)c2ccc(NC(=N)N)cc2)cc1,"Urokinase-type plasminogen activator (PLAU, Homo sapiens, UniProt P00749)",IC50,16.4 nM

# For quick reference, copied from above (study 3):
Variant,normalised enrichment score
TSVRDALFTGGSD [R5D],0.131
TSVVRALFTGGSD [R4V],0.179
TSVRRALFTGGWD [S12W],0.304
